Experimental data from different studies.
Parts stem from different laboratories: compare values within a part only. Changes are numbered by the printed parent chain.

Set 1 — target: CCNE1, cyclin fold, Cln2 fusion (human); method: yeast growth competition, sequencing; matrix: yeast; setting: strong parent motif; baseline: not given; reading: higher = stronger binding
Starting sequence: PKN2 docking peptide (human); VSAVRKLDFSDTM; partner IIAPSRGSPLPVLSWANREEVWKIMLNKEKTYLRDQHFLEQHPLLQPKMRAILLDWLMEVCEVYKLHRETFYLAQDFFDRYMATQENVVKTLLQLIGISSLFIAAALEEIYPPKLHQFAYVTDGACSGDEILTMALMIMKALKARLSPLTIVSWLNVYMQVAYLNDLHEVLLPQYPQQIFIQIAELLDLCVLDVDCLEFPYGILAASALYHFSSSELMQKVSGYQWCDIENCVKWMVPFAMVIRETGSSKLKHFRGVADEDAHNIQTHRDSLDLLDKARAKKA
| Substitution | normalised enrichment score |
| --- | --- |
| VSAVRKLDVSDTM [F9V] | 0.214 |
| VSAVRKLDFIDTM [S10I] | 4.09 |
| VSAVRKLMFSDTM [D8M] | 3.81 |
| VSAVRKLDFEDTM [S10E] | 5.85 |
| VHAVRKLDFSDTM [S2H] | 5.49 |
| VSAVRKCDFSDTM [L7C] | -0.0903 |
| VSAVRKLDFSDSM [T12S] | 5.66 |
| VSAVRKLDPSDTM [F9P] | -0.232 |

Set 2 — method: RNA Bind-n-Seq; molecule type: RNA; matrix: in vitro; concentration: 365 nM; baseline: no-protein control; reading: higher = stronger binding
Target: RNA binding protein fox-1 homolog 2, RRM domain, GST-SBP tag (RBFOX2, Homo sapiens, UniProt O43251-10, residues 100-194)
Setting: natural RNA segment, single round, ends assumed
Shared flanks, not repeated: GGGAGUUCUACAGUCCGACGAUC … UGGAAUUCUCGGGUGCCAA
Target sequence (chain): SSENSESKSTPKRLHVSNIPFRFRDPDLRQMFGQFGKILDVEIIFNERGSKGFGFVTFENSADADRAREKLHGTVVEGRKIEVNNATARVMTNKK
| Strand | RBNS enrichment (R) |
| --- | --- |
| AAUAUGGAGUAAGUAUUGUAAACUAUUUCAUCGCGGGGAUUGUGGGUGUUAUACAUACAUUUAGGACUGCAAUUUUUUGGUAUUUUUUGUAUUGUAAAAUAACAGCUAAU | 3.52 |
| CGCCUCCCCAGCACCUGCCCUCCCAGUCUCCCACCCCGGCCCCAGGCUGGAAGCCCUCCCUCCACUUAAGUUAUUGUUUUAAACCAAAGUUUACAGUGUCUGUUGGUGGC | 0.635 |
| GAGAACAAAUACACACUUGACAUGGGAGCAAACUGGUUCUGAACUUUGUGACUGUUUGCUAGUGACGCAACUAUUGGUUUUUUGUCAACUGGGCAAUAUGGGUAAAAUUU | 0.849 |
| AAACCUAAAGAAAUUACUUUUUUGCUAAAAAAAAAAAAAUCAAAUGAUUUAACAGUUUCUGUGUAUGUUAAACUUUCAAGUGUUUUUUUAAAUCAUAAUGUGUAAUAAUU | 1.96 |
| AAAUAGUUUUACUGAUAAUCCAAUCACUUGGAUAGUUAAUUUUAUUACUUUUUGUUUCCUUUUUAAUAUUUAUUCUUCCCGUUAAGGGUUUUUUGGCUAUAAAUUCGUAC | 0.443 |
| AAUUAUGGUACUUAUUUAUGUAGUCACUGUAUUUCUGGAUUUUUAAAUUAAUAAAAAAGUUAAUUUUAAAAAUCAUCUGUAGUCUUGUUGCAUAAGUAAUUGACUCUCUG | 0.76 |
| CCAGUAAAAUGUCUAUGACUCUUACAUGUUGUCAUUCUUCUUCUUUUGGCUUUGCUGCUCUGAUGAAGUUGCUCAGAUGAGCUGUGGCUGCCAGAGAACAAGGUGUAUGU | 0.273 |
| GACAGCUUGGGUGUGAAUGGCAAGACAGUAGAUGAGUCUGGUUAAGCGAGGUCAGACAUCCACCAGAAUCAACUCAGCCUCAGGCAUCCAAAGCCACAUCACAGUCGGUG | 0.497 |
| AGGACCCCCGGGGCUGCAGCCUCCUCUUUCUGUCUCUGAUCAGAGCCGACACCAGACGUGAUUAGCAGGCGCAGCAAAUUCAAUUUGUUAAAUGAAAUUGUAUUUUGCCC | 0.403 |
| GCAGGCACUGUGGCCGCUGAGCUGCGUGUUCCCAGCUGCCUCUGUUGCGGACAGCCCGCUCCACUCUCCACCCUGUACUCCAUAAAUAAAGCUACGUGCUUCUGCCCUGA | 0.313 |
| GGAUGUGGCUGUAACCUGCUGGAUGGGACUCCAUAGCUCCUUCCCAGGACCCCUCAGCUCCCCGGCACUGCAGUCUGCAGAGUUCUCCUGGAGGCAGGGGCUGCUGCCUU | 0.638 |

Set 3 — method: universal PBM; molecule type: double-stranded DNA, one strand shown; matrix: in vitro; concentration: not given; reading: higher = stronger binding
Target: Sal-like protein 4, full length isoform B (SALL4, Homo sapiens, UniProt Q9UJQ4-2, residues 1-616)
Setting: 8-mer, flanks averaged, mean of replicates
| Strand | E-score |
| --- | --- |
| GAGACCAA | -0.107 |
| ACAAATCC | 0.126 |
| AATGTTCA | 0.138 |
| ACTGGAGC | -0.18 |
| AAAGTTCA | 0.164 |
| AGCGAACG | -0.29 |
| GGTTTCGA | -0.258 |
| CCCAACAG | -0.196 |
| AAAGTATC | 0.196 |
| ATGAGGTA | 0.178 |
| CAGGTAGG | 0.0122 |

Single results of other studies
| Molecule | target | test | test system | setting | how to read | endpoint | result |
| --- | --- | --- | --- | --- | --- | --- | --- |
| PhoQ, residues 284 288 289 292 302 303 SIHLQL | PhoP, residues 12 14 15 18 19 LQHIR (Escherichia coli, UniProt P23836) | Sort-seq, refers to: YFP reporter | E. coli | PhoQ-PhoP variant library, together with: 10 µM Mg2+ | baseline: high Mg2+ state, higher = stronger signaling | fold induction | 15 |

Some of these lines once more (set 1):
| Substitution | normalised enrichment score |
| --- | --- |
| VSAVRKLDFIDTM [S10I] | 4.09 |
| VSAVRKLDFSDSM [T12S] | 5.66 |
